Measurements from different studies.
pEC50, pIC50: −log10 of the molar value.
Chain of UniProt P11309 (whole entry, looked up): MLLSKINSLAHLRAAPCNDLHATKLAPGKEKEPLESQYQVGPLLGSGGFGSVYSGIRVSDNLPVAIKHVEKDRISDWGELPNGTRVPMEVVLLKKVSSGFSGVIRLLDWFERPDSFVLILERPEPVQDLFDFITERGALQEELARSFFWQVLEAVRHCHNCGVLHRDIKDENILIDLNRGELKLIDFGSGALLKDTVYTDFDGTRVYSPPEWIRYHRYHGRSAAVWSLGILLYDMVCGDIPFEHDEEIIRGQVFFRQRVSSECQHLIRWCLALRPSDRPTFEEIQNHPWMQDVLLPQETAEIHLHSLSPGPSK
Chain of UniProt P07949 (whole entry, unmodified, looked up): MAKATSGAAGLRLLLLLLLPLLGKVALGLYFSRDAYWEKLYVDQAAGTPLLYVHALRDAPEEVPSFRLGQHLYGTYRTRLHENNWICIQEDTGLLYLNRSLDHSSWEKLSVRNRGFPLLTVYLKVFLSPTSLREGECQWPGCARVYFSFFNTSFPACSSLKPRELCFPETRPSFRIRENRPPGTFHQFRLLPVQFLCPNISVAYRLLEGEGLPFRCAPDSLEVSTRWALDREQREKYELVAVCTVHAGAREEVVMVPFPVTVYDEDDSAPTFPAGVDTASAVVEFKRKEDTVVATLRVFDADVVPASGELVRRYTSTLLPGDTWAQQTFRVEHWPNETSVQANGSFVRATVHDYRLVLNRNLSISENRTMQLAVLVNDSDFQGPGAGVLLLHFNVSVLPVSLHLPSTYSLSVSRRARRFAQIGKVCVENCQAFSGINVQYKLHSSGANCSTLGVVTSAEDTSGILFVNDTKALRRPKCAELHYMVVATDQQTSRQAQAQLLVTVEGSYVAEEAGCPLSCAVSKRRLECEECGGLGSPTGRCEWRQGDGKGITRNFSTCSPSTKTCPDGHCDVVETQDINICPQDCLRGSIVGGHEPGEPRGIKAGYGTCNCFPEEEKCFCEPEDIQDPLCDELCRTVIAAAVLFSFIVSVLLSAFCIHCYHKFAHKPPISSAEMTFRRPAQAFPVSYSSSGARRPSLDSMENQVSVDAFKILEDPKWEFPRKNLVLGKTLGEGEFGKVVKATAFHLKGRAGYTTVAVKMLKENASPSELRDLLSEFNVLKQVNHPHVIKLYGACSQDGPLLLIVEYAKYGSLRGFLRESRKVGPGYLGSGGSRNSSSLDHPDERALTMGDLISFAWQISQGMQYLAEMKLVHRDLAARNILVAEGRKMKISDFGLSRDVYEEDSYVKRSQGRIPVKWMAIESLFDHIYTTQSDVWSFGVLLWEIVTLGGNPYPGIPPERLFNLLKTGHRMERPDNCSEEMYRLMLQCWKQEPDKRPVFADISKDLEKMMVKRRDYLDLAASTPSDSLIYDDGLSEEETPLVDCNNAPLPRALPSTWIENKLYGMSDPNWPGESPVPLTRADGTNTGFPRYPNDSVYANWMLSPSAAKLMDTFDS
Chain of UniProt P29320 (whole entry, looked up): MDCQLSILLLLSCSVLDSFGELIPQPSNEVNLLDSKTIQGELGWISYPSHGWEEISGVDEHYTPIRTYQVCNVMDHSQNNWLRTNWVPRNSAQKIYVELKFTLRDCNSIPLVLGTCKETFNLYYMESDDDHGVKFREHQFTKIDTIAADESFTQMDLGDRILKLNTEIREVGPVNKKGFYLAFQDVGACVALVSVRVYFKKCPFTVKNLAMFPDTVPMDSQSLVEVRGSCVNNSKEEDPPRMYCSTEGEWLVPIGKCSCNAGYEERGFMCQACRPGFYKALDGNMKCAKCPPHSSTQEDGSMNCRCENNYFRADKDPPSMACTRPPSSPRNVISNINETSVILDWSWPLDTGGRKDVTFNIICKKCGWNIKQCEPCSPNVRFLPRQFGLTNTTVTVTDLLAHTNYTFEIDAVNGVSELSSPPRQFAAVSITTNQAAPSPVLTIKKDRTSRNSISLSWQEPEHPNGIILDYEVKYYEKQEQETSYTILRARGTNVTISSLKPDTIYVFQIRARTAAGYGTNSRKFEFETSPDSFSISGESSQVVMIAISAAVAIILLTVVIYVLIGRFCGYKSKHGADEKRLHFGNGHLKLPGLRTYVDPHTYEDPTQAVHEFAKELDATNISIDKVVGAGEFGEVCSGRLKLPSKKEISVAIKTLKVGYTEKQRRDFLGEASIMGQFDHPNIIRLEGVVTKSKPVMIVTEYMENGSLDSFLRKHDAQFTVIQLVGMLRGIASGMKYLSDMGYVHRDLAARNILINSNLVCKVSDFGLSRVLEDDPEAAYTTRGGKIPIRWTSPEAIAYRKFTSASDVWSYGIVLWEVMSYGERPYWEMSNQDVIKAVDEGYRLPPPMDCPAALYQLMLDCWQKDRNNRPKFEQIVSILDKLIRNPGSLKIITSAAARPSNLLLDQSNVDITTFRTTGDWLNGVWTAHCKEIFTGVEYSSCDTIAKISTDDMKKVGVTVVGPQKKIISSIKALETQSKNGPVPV

CC(=NNC(=S)Nc1ccccc1)c1ccc(Nc2nnc(-c3ccc(Cl)cc3)c3ccccc23)cc1 has a viability of 99.1% (HepG2; cell growth or viability, MTT; 0.312 µM, 24 h).
CCCCn1cnc2ccc(-c3ccc(NC(=O)Nc4ccc(F)cc4)nc3)cc2c1=O gave a pIC50 of 5.21 (HCC827; cell growth or viability, CCK-8; 72 h).
O=C(Nc1ccc(Oc2nnc(-c3ccc(Cl)cc3)c3ccccc23)cc1)c1ccccc1 has a viability of 54.4% (HepG2; cell growth or viability, MTT; 0.156 µM, 24 h).
The pIC50 of CCCCCC(=O)Nc1ccc(-c2ccc3ncn(Cc4ccccc4)c(=O)c3c2)cn1 is reported as less than 5.00 (HCC827; cell growth or viability, CCK-8; 72 h).
CC(C)Nc1ccnc(Nc2cccc(-c3cnccn3)c2)n1 has a pEC50 of less than 4.74 (BJ; cell growth or viability, ATP luminescence; 72 h).
For CCCCC(=O)Nc1ccc(-c2ccc3ncn(C4CC4)c(=O)c3c2)cn1, the pIC50 was 5.77 (HCC827; cell growth or viability, CCK-8; 72 h).
Cc1noc(NS(=O)(=O)c2ccc(N=NN(O)c3ccccc3)cc2)c1C has an inhibition of 7.96% (DPPH scavenging, absorbance; 20 µg/mL).
CCCCC(=O)Nc1ccc(-c2ccc3ncn(CC#N)c(=O)c3c2)cn1 gave a pIC50 of less than 5.00 (HCC827; cell growth or viability, CCK-8; 72 h).
With CC(=NNC(=O)c1cccnc1)c1ccc(Nc2nnc(-c3ccc(Cl)cc3)c3ccccc23)cc1 the cell death was 50.1% (HepG2; cell growth or viability, MTT; 0.625 µM).
The remaining activity of CNc1ncc2c(/C=C/C(=O)N3CCC(OC)CC3)nn(Cc3cccc(C(F)(F)F)c3)c2n1 is reported as 105% (Serine/threonine-protein kinase pim-1 (PIM1, Homo sapiens, UniProt P11309); enzyme activity, inhibitor, radiometric; 1 µM).
For COc1ccc(NC(=O)c2c(Nc3ccccc3)sc(C#N)c2NC(=O)CNc2ccccc2)cc1, the viability was 102% (HCT-116; cell growth or viability, SRB; 1 nM, 48 h).
With CCCCn1cnc2ccc(-c3ccc(NC(=O)Nc4ccc(CC)cc4)nc3)cc2c1=O the pIC50 was less than 5.00 (NCI-H1975; cell growth or viability, CCK-8; 72 h).
The pEC50 of c1cncc(Nc2nccc(NC3CCCCC3)n2)c1 is reported as less than 5.00 (BJ; cell growth or viability, ATP luminescence; 72 h).
The inhibition of CCC(=CCc1c(O)cc2c(c1O)C(=O)CC(c1ccc(O)cc1)O2)CC (stereo in doubt) is reported as 19.9% (HeLa; cell growth or viability, MTT; 12.5 µM, 48 h).
For CC(=NNC(=O)c1ccccc1Cl)c1ccc(Nc2nnc(-c3ccc(Cl)cc3)c3ccccc23)cc1, the cell death was 96.5% (HepG2; cell growth or viability, MTT; 5 µM).
CC(C)Nc1ccnc(Nc2cccc(-c3ccccn3)c2)n1 gave a pEC50 of less than 4.89 (BJ; cell growth or viability, ATP luminescence; 72 h).
COc1ccc(NC(=O)c2c(Nc3ccccc3)sc(C#N)c2NC(=O)CNc2ccccc2[N+](=O)[O-])cc1 gave a viability of 67.3% (HepG2; cell growth or viability, SRB; 1 µM, 48 h).
c1cncc(-c2cccc(Oc3nccc(NC4CCCCC4)n3)c2)c1 has a pEC50 of less than 4.85 (BJ; cell growth or viability, ATP luminescence; 72 h).
CCN(O)N=Nc1ccc(S(=O)(=O)Nc2cc(C)on2)cc1 gave an inhibition of 32.4% (DPPH scavenging, absorbance; 180 µg/mL).
C=CC(=O)N1CCC(COCC(=O)N2CCN(c3nc(-c4cnc(N)nc4C(F)F)nc(N4CCOC[C@@H]4C)n3)CC2)CC1 gave a remaining binding of 94% (Ephrin type-A receptor 3 (EPHA3, Homo sapiens, UniProt P29320); binding, competition with immobilised ligand; 1 µM).
O=C(Nc1ccccc1)Nc1ccc(Oc2nnc(-c3ccc(Cl)cc3)c3ccccc23)cc1 has a viability of 18.7% (HepG2; cell growth or viability, MTT; 0.156 µM, 24 h).
CC(C)Nc1ccnc(Nc2cccc(-c3cc[nH]n3)c2)n1 has a pEC50 of less than 4.44 (BJ; cell growth or viability, ATP luminescence; 72 h).
For CC(=O)Nc1ccc(Oc2nnc(-c3ccc(Cl)cc3)c3ccccc23)cc1, the viability was 35.2% (HepG2; cell growth or viability, MTT; 0.312 µM, 24 h).
The inhibition of O=C(Nc1ccccc1/N=c1\cc(-c2ccc3c(c2)OCO3)oc2ccccc12)N1CCOCC1 is reported as -0.24% (MOLM-13; cell growth or viability, CCK-8; 1 µM).
For COc1ccc(NC(=O)c2c(Nc3ccccc3)sc(C(=O)NN=Cc3cc(OC)c(OC)c(OC)c3)c2NC(C)=O)cc1, the viability was 95.6% (HCT-116; cell growth or viability, SRB; 10 nM, 48 h).
With CCCCn1cnc2ccc(-c3ccc(NC(=O)NCCc4ccccc4)nc3)cc2c1=O the pIC50 was less than 5.00 (HCC827; cell growth or viability, CCK-8; 72 h).
The cell death of CC(=NNC(=O)c1ccncc1)c1ccc(Nc2nnc(-c3ccc(Cl)cc3)c3ccccc23)cc1 is reported as 94.7% (HepG2; cell growth or viability, MTT; 1.25 µM).
For CC(C)Nc1ccnc(Nc2cccc(-n3ccnc3)c2)n1, the pEC50 was less than 4.80 (BJ; cell growth or viability, ATP luminescence; 72 h).
CCCCn1cnc2ccc(-c3ccc(NC(=O)C4CCCC4)nc3)cc2c1=O gave a pIC50 of 5.43 (NCI-H1975; cell growth or viability, CCK-8; 72 h).
The viability of COc1ccc(NC(=O)c2c(Nc3ccccc3)sc(C(=O)NN=Cc3ccccc3)c2NC(C)=O)cc1 is reported as 87.1% (HCT-116; cell growth or viability, SRB; 0.1 µM, 48 h).
The pEC50 of NC(=O)c1ccc(Nc2nccc(NC3CCCCC3)n2)cc1 is reported as less than 4.89 (BJ; cell growth or viability, ATP luminescence; 72 h).
With COc1cc(-c2cncc3c2CN(C)Cc2cc(N4CCNCC4)ccc2-3)cc(OC)c1OC the remaining activity was 108% (Proto-oncogene tyrosine-protein kinase receptor Ret (RET, Homo sapiens, UniProt P07949, V804L); enzyme activity, inhibitor; 1 µM).
c1cc(Nc2nccc(NC3CCCCC3)n2)cc(-n2ccnc2)c1 gave a pEC50 of less than 5.10 (BJ; cell growth or viability, ATP luminescence; 72 h).
With CCCCC(=O)Nc1ccc(-c2cnc3ncn(CCC)c(=O)c3c2)cn1 the pIC50 was 5.57 (NCI-H1975; cell growth or viability, CCK-8; 72 h).
